Published values collected from several papers.
Lines come from different studies, so protocols differ. Several values in a cell are separate wells, animals, samples, runs or records. Numbers after ± are the reported error.
KCNJ13 M125R: Inward rectifier potassium channel 13 (KCNJ13, Homo sapiens, UniProt O60928, M125R)
STS: Steryl-sulfatase (STS, Homo sapiens, UniProt P08842)
Kir1 channel protein: Kir1 channel protein (Aedes aegypti, UniProt L0EQS9)
Urease: Urease (Canavalia ensiformis, UniProt P07374)
Inward rectifier potassium channel 4: Inward rectifier potassium channel 4 (Homo sapiens, UniProt P48050)
KCNK18: Potassium channel subfamily K member 18 (KCNK18, Homo sapiens, UniProt Q7Z418)

SMILES | target | test | test system | setting | IC50
N#Cc1ccc(F)c(OCC(O)Cn2c(=N)n(Cc3ccccc3)c3ccccc32)c1 (stereo not drawn) | KCNJ13 M125R | ion flux, inhibitor | – | – | 4.33 µM
CC(=O)N[C@H]1[C@H]([C@H](O)[C@H](O)CO)OC(C(=O)O)=C[C@@H]1N=C(N)N | SLC15A1 (Homo sapiens, UniProt P46059) | inhibitor | Caco-2 | up to 5 mM, 30 min, pH 6.0, 37 °C, added: [3H]Gly-Sar 10 µmol/L | no inhibition
C#CCOc1ccccc1-c1cc(=O)c2ccccc2o1 | Cytochrome P450 2B1 (Cyp2b1, Rattus norvegicus, UniProt P00176) | enzyme activity, inhibitor | supersomes | added: pentoxyresorufin 5 µM | 9.66 µM
Oc1ccc(C2CNCCc3c2cc(O)c(O)c3Cl)cc1 (stereo not drawn) | Carbamate kinase (Giardia intestinalis, UniProt A8BB85) | enzyme activity, ATP luminescence | – | – | 16.3 µM
C[C@@H](CNCc1ccccc1)N1C[C@H](CCCNC(=N)N)N(CCc2cccc(F)c2)C1=S | NPY1R (Homo sapiens, UniProt P25929) | receptor activation, antagonist, FLIPR | – | – | > 10 µM
N#Cc1ccc([C@H](Cc2ccc(OS(N)(=O)=O)c(Br)c2)n2cncn2)cc1 | STS | enzyme activity, inhibitor | – | – | 0.28 ± 0.02 µM
Cc1cccc(Cc2nn(C(C)(C)C)c3ncnc(N)c23)c1 | EPHB1 (Homo sapiens, UniProt P54762, T697G) | phosphorylation in cells, inhibitor, western blot | – | – | 0.005 µM
Cc1nc(CNc2cc(N3CCN(S(=O)(=O)c4ccc(F)cc4)CC3)ccc2[N+](=O)[O-])no1 | Kir1 channel protein | ion flux, inhibitor, fluorescence | – | – | 0.359 µM
CN1CCN(CCC(=O)Nc2ccc3c(c2)Sc2cccc(-c4cc(=O)cc(N5CCOCC5)o4)c2S3)CC1 | ATR (Homo sapiens, UniProt Q13535) | enzyme activity, inhibitor | – | – | > 100 µM
O=C(O)CCNC(=S)NCCCC[C@H](NS(=O)(=O)c1cccc(F)c1)C(=O)N[C@@H](Cc1c[nH]c2ccccc12)C(=O)NC1CCC1 | SIRT5 (Homo sapiens, UniProt Q9NXA8) | inhibitor | – | 30 min, room temperature, added: glutaryl peptide substrate, 250 µM NAD+ | 0.047 ± 0.002 µM
Cc1cccc(C)c1NC(=S)N1CCc2ccccc2C1 | Urease | enzyme activity, inhibitor, absorbance | – | – | 11.2 µM
Cc1cc(OCC(=O)N/N=C/c2cccc(OCc3cn(Cc4ccc(F)cc4)nn3)c2)c2c(C)cc(=O)oc2c1 | Urease | enzyme activity, inhibitor | – | – | 8.42 ± 0.53 µM
Cn1c(=N)n(CC(O)COc2ccc(C(F)(F)F)cc2)c2ccccc21 (stereo not drawn) | KCNJ13 M125R | ion flux, inhibitor | – | – | 5.2 µM
O=c1cc(-c2cccc3ccccc23)[nH][nH]1 | ALPL (Homo sapiens, UniProt P05186) | enzyme activity, inhibitor, luminescence | – | added: 0 M DEA, 50 µM CDP-star | 3.21 ± 0.168 µM
O=C(Nc1cc(F)c(F)c(F)c1Br)c1cc(S(=O)(=O)N2CCOCC2)c(Cl)cc1Cl | LPAR1 (Homo sapiens, UniProt Q92633) | Ca2+ mobilization, antagonist | RH7777 | added: LPA at EC50 | > 100 µM
COc1cccc(Cn2c(=N)n(CC(O)COc3ccc(C)cc3)c3ccccc32)c1 (stereo not drawn) | KCNJ13 M125R | ion flux, inhibitor | – | – | 3 µM
CO[C@H]1/C=C/O[C@@]2(C)Oc3c(C)c(O)c4c(O)c(c(/C=N/N5CCN(C)CC5)c(O)c4c3C2=O)NC(=O)/C(C)=C\C=C\[C@H](C)[C@H](O)[C@@H](C)[C@@H](O)[C@@H](C)[C@H](OC(C)=O)[C@@H]1C | SLCO1B1 (Homo sapiens, UniProt Q9Y6L6) | transporter uptake, inhibitor, radiometric | HEK293 | 1 h, pH 7.4 | > 10 µM
[Cl-].[Cl-].[Cl-].[Gd+3] | human MMP-2 catalytic domain | inhibitor | – | pH 7.5, 37 °C, 45 min preincubation, added: DQ-gelatin | 8.4 ± 0.22 µM
O=[N+]([O-])c1ccc(N2CCN(S(=O)(=O)c3ccc(F)cc3)CC2)cc1NCc1nccs1 | Kir1 channel protein | ion flux, inhibitor, fluorescence | – | – | 0.496 µM
N#CC1=C(N)Oc2c(c(=O)[nH]c3ccccc23)C1c1ccc(OCc2cn(Cc3ccccc3)nn2)cc1 (stereo not drawn) | MAL12 (Saccharomyces cerevisiae S288c, UniProt P53341) | enzyme activity | – | – | 20.01 ± 0.02 µM

SMILES | target | test | test system | setting | IC50
Nc1ncnc2c1ncn2[C@@H]1O[C@H](CSCC[C@H](N)C(=O)O)[C@@H](O)[C@H]1O | Histone-lysine N-methyltransferase 2A, pentameric core complex (KMT2A, Homo sapiens, UniProt Q03164) | FL-NAH displacement, fluorescence polarization | – | 30 min, pentameric complex, added: 50 nM FL-NAH | 0.2 ± 0.02 µM
Nc1ccccc1NC(=O)c1ccc(CNC(=O)OCc2cccnc2)cc1 | HDAC (Lucilia cuprina egg nuclear extract) | enzyme activity, inhibitor, fluorometric | – | – | 15 µM
NC/C(=C\F)COc1cccc(Cn2c(=S)[nH]c(=O)c3[nH]cnc32)c1 | Myeloperoxidase (MPO, Homo sapiens, UniProt P05164) | HOCl production | – | 6 min, enzyme 10 nM, added: H2O2 50 µM, taurine 5 mM | 0.25 µM
C[C@]12CC[C@@H]3c4cc(C(F)F)c(OS(N)(=O)=O)cc4CC[C@H]3[C@@H]1CCC2=O | STS | enzyme activity, inhibitor | – | lysate | 0.019 µM
C#Cc1cccc(Nc2ncnc3cc(OC)c(OCCCCCCC(=O)NO)cc23)c1 | HDAC (Lucilia cuprina egg nuclear extract) | enzyme activity, inhibitor, fluorometric | – | – | 0.032 µM and 0.0317 µM
Fc1ccc(NC(=S)N2CCc3ccccc3C2)c(F)c1 | Urease | enzyme activity, inhibitor, absorbance | – | – | 28.7 µM
Nc1ncnc2c1ncn2[C@H]1C[C@H](OP(=O)(O)O)[C@@H](COP(=O)(O)O)O1 | AASDHPPT (Homo sapiens, UniProt Q9NRN7) | phosphopantetheinylation, inhibitor, fluorescence polarization | – | 45 min, pH 7.6, 10% DMSO, added: VibB 10 µM and rhodamine-CoA 5 µM | 51 ± 1 µM
[Zn+2] | Caspase-7 (CASP7, Homo sapiens, UniProt P55210) | enzyme activity, inhibitor | – | citrate-buffered free compound, added: DEVD-AMC substrate | 0.141 ± 0.0021 µM
O=C(NO)c1ccc(Cn2c3c(c4cc(Br)ccc42)SC(c2ccccc2)C3)s1 (stereo not drawn) | Histone deacetylase 8 (Schistosoma mansoni, UniProt A5H660) | enzyme activity, inhibitor, Fluor-de-Lys | – | added: Fluor-de-Lys substrate 50 µM | 4.22 ± 1.58 µM
N=c1n(Cc2ccccc2)c2ccccc2n1CC(O)COc1ccc(OCc2ccccc2)cc1 (stereo not drawn) | Inward rectifier potassium channel 4 | ion flux, inhibitor, fluorescence | – | – | 2.33 µM
COc1ccc(-c2ccc3ncc4c(c3c2)n(-c2ccc(N3CCNCC3)c(C(F)(F)F)c2)c(=O)n4C)cn1 | ATM (Homo sapiens, UniProt Q13315) | kinase activity reporter, inhibitor, SPARK reporter imaging | HEK293 | 1 h, added: etoposide 3 µM | ~0.0038 µM and 0.0038 µM
C[C@H]1O[C@H](O[C@H]2[C@H](O)[C@@H](O)[C@@H](O[C@H]3[C@H](O)[C@@H](O)C(O)O[C@@H]3CO)O[C@@H]2CO)[C@H](O)[C@@H](O)[C@@H]1N[C@H]1C=C(CO)[C@@H](O)[C@H](O)[C@H]1O (stereo partly drawn) | maltase, rat intestine | enzyme activity, inhibitor | – | 20 min, pH 6.8, 37 °C, added: pNPG 0.50 mM | 162 ± 6.34 µg/mL
Cn1c(=O)c2c(nc(C=Cc3cccc(Cl)c3)n2C)n(C)c1=O | KCNK18 | ion flux, inhibitor | – | – | 22 µM
COc1ccc(-c2cc(=O)c3c(OC)c(OC)c(OC)c(OC)c3o2)cc1OC | SLCO2B1 (Homo sapiens, UniProt O94956) | transporter uptake, inhibitor, radiometric | MDCK-II | 3 min, pH 6 | < 5 µM and 3.7 µM
O=C(OC[C@H]1OC[C@H](OC(=O)c2cc(O)c(O)c(O)c2)[C@@H](O)[C@@H]1O)c1cc(O)c(O)c(O)c1 | ALKBH2 (Homo sapiens, UniProt Q6NS38) | 1-methyladenine repair, inhibitor, HPLC | – | 1 h, 37 °C, added: ssDNA 16mer 5 µM | 10.6 µM
COC(=O)C1=C(C)NC(C)=C([N+](=O)[O-])[C@H]1c1ccccc1C(F)(F)F | CACNA1H (Homo sapiens, UniProt O95180) | calcium current, blocker, automated patch clamp | holding potential -90 mV | last pulse of train, added: 1 Hz pulse train | 7.2 ± 0.7 µM
CCCc1nc2ccc(C)nc2n1-c1ccc2[nH]c(=O)sc2c1 | GRIA1/CACNG8 (Homo sapiens, UniProt P42261+Q8WXS5) | calcium influx, antagonist, FLIPR | HEK293 expressing GluA1o | added: glutamate 100 µM | 0.0045 µM
CCCC(=O)NCCc1c2n(c3ccc(OC)cc13)CCCc1ccccc1-2 | KCNK18 | ion flux, inhibitor | – | – | 21.8 µM
Cc1cc(C)cc(OCC(O)Cn2c(=N)n(Cc3ccccc3)c3ccccc32)c1 (stereo not drawn) | Inward rectifier potassium channel 4 | ion flux, inhibitor, fluorescence | – | – | 3.65 µM

Some of these lines once more:
SMILES | target | test | test system | setting | IC50
Nc1ncnc2c1ncn2[C@H]1C[C@H](OP(=O)(O)O)[C@@H](COP(=O)(O)O)O1 | AASDHPPT (Homo sapiens, UniProt Q9NRN7) | phosphopantetheinylation, inhibitor, fluorescence polarization | – | 45 min, pH 7.6, 10% DMSO, added: VibB 10 µM and rhodamine-CoA 5 µM | 51 ± 1 µM
Cn1c(=O)c2c(nc(C=Cc3cccc(Cl)c3)n2C)n(C)c1=O | KCNK18 | ion flux, inhibitor | – | – | 22 µM
O=c1cc(-c2cccc3ccccc23)[nH][nH]1 | ALPL (Homo sapiens, UniProt P05186) | enzyme activity, inhibitor, luminescence | – | added: 0 M DEA, 50 µM CDP-star | 3.21 ± 0.168 µM
